Measured values collected from several papers.
Compare with care: the assays were run in different laboratories. Numbers after ± are the reported error.

C[C@H](CCC(=O)NCC(=O)O)[C@H]1CC[C@H]2[C@@H]3[C@H](O)C[C@@H]4C[C@H](O)CC[C@]4(C)[C@H]3CC[C@]12C
plasma concentration (men, T/T genotype, plasma; dose not given, geometric mean): 443 ng/mL

COc1cc(CC(=O)O)ccc1OS(=O)(=O)O
plasma concentration (human plasma; median): 377 nM

CC1(C)CCC(CN2CCN(c3ccc(C(=O)NS(=O)(=O)c4ccc(NCC5CCOCC5)c([N+](=O)[O-])c4)c(Oc4cnc5[nH]ccc5c4)c3)CC2)=C(c2ccc(Cl)cc2)C1
plasma concentration (human, plasma; oral, 200 mg/day): 1700 ± 81.4 nM

COC(=O)C(c1ccccc1Cl)N1CCC(SCC(=O)c2cccc(OC)c2)C(=CC(=O)O)C1 (stereo not shown)
plasma concentration (cat, plasma; dose not given, day 5, with: clopidogrel plus omeprazole; reference: clopidogrel alone): no effect

COc1ccccc1OCC(O)CN1CCN(CC(=O)Nc2c(C)cccc2C)CC1 (stereo not shown)
plasma concentration (human, plasma; oral, 12 mg/kg/day every 6 h, 1 h post-dose): 1300 ng/mL

O=C(O)[C@H](c1ccccc1Cl)N1CCc2sccc2C1
plasma concentration (cat, plasma; dose not given, day 5, with: clopidogrel plus omeprazole; reference: clopidogrel alone): no effect

COc1ccc(C=CC(=O)O)cc1O[C@@H]1O[C@H](C(=O)O)[C@@H](O)[C@H](O)[C@H]1O
plasma concentration (human plasma; mean): 4060 nM

C[C@@H]1CCO[C@H]2Cn3cc(C(=O)NCc4ccc(F)cc4F)c(=O)c(O)c3C(=O)N12
plasma concentration (population PK, post-hoc; infants aged ≥1 months, 3 to <6 kg, plasma; oral, 4.8 mg granules, 24 h, steady state, geometric mean): 370 ng/mL

C[C@H](CCC(=O)NCC(=O)O)[C@H]1CC[C@H]2[C@@H]3CC[C@@H]4C[C@H](O)CC[C@]4(C)[C@H]3C[C@H](O)[C@]12C
plasma concentration (men, T/T genotype, plasma; dose not given, geometric mean): 137 ng/mL

CCn1c(C(=O)N(C2CC2)C2CC2)cc2c3c(ncn3C)c(Nc3cc(C)n(C)n3)nc21
plasma concentration (cancer patients; oral, 200 mg single dose, day 1, 0.5 h): 325 ng/mL

O=S(=O)(O)Oc1c(O)cccc1O
plasma concentration (human plasma; mean): 2040 nM

CC(C)C[C@H](NC(=O)[C@@H](Cc1c[nH]c2ccccc12)NC(=O)[C@H](Cc1ccc(O)cc1)NC(=O)[C@H](CO)NC(=O)[C@H](Cc1c[nH]c2ccccc12)NC(=O)[C@H](Cc1c[nH]cn1)NC(=O)[C@@H]1CCC(=O)N1)C(=O)N[C@@H](CCCNC(=N)N)C(=O)N1CCC[C@H]1C(=O)NCC(N)=O
plasma concentration (Chinese boys, precocious puberty, plasma; intramuscular, 22.5 mg, 4 h post-injection day 1, mean): 41.6 ng/mL

O=C(O)c1cccc(O)c1
plasma concentration (human plasma; median, both sexes): 1740 nM

O=C1CCc2ccc(OCCCCN3CCN(c4cccc(Cl)c4Cl)CC3)cc2N1
plasma concentration (patients, plasma, steady state; oral or long-acting depot injection, dose not given, CYP2D6 IM, median): 173 ng/mL

O=C(Nc1cnccc1Cl)N1CCN(Cc2ccc3c(c2)OC(F)(F)O3)CC1
plasma concentration (human, plasma; 2.5 mg once daily, 24 h post dose day 7): not detected

O=C(O)/C=C/c1ccc(O[C@@H]2O[C@H](C(=O)O)[C@@H](O)[C@H](O)[C@H]2O)c(O)c1
plasma concentration (human plasma; mean): 388 nM

Some of these lines once more:
O=C1CCc2ccc(OCCCCN3CCN(c4cccc(Cl)c4Cl)CC3)cc2N1
plasma concentration (patients, plasma, steady state; oral or long-acting depot injection, dose not given, CYP2D6 IM, median): 173 ng/mL
